Measurements pooled from the literature.
Every numbered part comes from another study and shows a few of its results, in no order.

Block 1 — method: Sort-seq; measured: YFP reporter; medium: E. coli; setting: PhoQ-PhoP variant library; added: 10 µM Mg2+; reference: high Mg2+ state; direction: higher = stronger signaling; quantity: fold induction
Molecule: PhoQ, residues 284 288 289 292 302 303 SSYNSA
PhoP, residues 12 14 15 18 19 HHYTI (Escherichia coli, UniProt P23836): 1.26
PhoP, residues 12 14 15 18 19 AYFRS (Escherichia coli, UniProt P23836): 19.8
PhoP, residues 12 14 15 18 19 SFCSL (Escherichia coli, UniProt P23836): 30.4

Block 2 — method: RNA Bind-n-Seq; molecule type: RNA; medium: in vitro; concentration: 365 nM; reference: no-protein control; direction: higher = stronger binding; quantity: RBNS enrichment (R)
Target: RNA binding protein fox-1 homolog 2, RRM domain, GST-SBP tag (RBFOX2, Homo sapiens, UniProt O43251-10, residues 100-194)
Setting: natural RNA segment, single round, ends assumed
All sequences stand within: GGGAGUUCUACAGUCCGACGAUC … UGGAAUUCUCGGGUGCCAA
Target sequence (chain): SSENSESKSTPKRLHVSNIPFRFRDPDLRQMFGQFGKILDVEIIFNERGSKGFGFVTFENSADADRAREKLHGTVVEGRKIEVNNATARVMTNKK
UCCAAAAGAGUUUGAUUCUGGCACAUUCUUGCCGCUGCCCCCAAGUUAACAACAGUAGGUAAUUUGCACACCUCUGGCUCUGUGCCUUUCUAUUAGGACUUUUUGGCAGA: 0.53
AUCUUCACUACCAUUCGCCCUUUCUGCUGAAGGAAUGGUGACGUGUUCCCAGGAGAACUGGGAGGCACAGGAUUCCCAGCACCCUUGCUGCCUCAUUGGGGAAGUUGGCC: 0.293
CUUGAGGUUCCUUGAAUUUGCGAGGUGUGGAAAGACUACUUGACUGUCUGUCCAGCUUAGCUGUUAUGUUUUUUGGGGGGGAGGGGUGAUGUGUUAAGAGUGAGUGGUAC: 1.44
GGCCUUUAAAAAGUGCCUAGUAGGUCAUUUGAGACCCAGAGAAAUGCACAGAGCUUGAGCAAAGGCAUGAAGUCCCUGACAUUGUUUUCCUUUUUGUCUCAGCAUAUAGU: 0.755
UUUGCUAAGAGUUUAAAAUCUUAAAACCCAUAAGUGCCACUAGGAAGGAAACCCUGUAUAUACCUACAUUGACCCAAGAAAUAUUUACGCAAUCCCUAGCAGAACAUUGU: 0.655

Block 3 — method: aptamer microarray, sandwich; molecule type: DNA with 2'F-ANA; medium: in vitro; concentration: 200 nM; added: Cy3 exosite-II aptamer, 400 nM; direction: higher = stronger binding; quantity: mean fluorescence intensity; strand: GGTTGGTGTGGTTGG
Target: Prothrombin, mature alpha-thrombin (F2, Homo sapiens, UniProt P00734)
Setting: whole 15-mer aptamer, many near background
2'F-ANA at 1 3 5 6 7 8 10 11 12 13 14 15: 50.9 a.u.
2'F-ANA at 1 4 6 8 12 14 15: 62 a.u.
2'F-ANA at 2 4 5 6 11 14: 57.4 a.u.
2'F-ANA at 2 3 8 10 13: 376 a.u.
2'F-ANA at 2 3 4 5 6 13: 56.9 a.u.

Block 4 — method: protein binding microarray; molecule type: double-stranded DNA, one strand shown; medium: in vitro; concentration: not given; reference: not given; direction: higher = stronger binding; quantity: E-score
Target: Histone acetyltransferase KAT6A, winged helix 1, GST fusion (KAT6A, Homo sapiens, UniProt Q92794, residues 1-85)
Setting: 8-mer, flanks averaged, mean of 2 arrays, mostly near background
Construct (chain): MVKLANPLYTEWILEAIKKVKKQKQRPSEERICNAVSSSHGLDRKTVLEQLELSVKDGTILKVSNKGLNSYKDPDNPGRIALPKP
ATATTAGC: 0.0293
TAACATCA: -0.2
TAGGTCCA: -0.21
TCTTCTCA: -0.111
CTAATCGC: 0.184
CTGCCCCA: -0.162
GTCTACGA: -0.214
